Published values from different studies.
Each numbered part is a random draw from the data of one study; scales do not carry over between parts.

Series 1 — technique: protein binding microarray; form: double-stranded DNA, one strand shown; medium: in vitro; tested at: not given; relative to: not given; direction: higher = stronger binding; endpoint: E-score
Target: Histone acetyltransferase KAT6A, winged helix 1, GST fusion (KAT6A, Homo sapiens, UniProt Q92794, residues 1-85)
Setting: 8-mer, flanks averaged, mean of 2 arrays, mostly near background
Residues (chain): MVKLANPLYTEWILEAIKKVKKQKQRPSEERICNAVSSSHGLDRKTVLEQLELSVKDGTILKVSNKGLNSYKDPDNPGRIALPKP
AATCACAG: -0.272
ACGGCGCT: 0.425
CGAAATTC: 0.0432
CTATTGTC: 0.00304
AAGGGGAC: -0.108
CCAATCGG: -0.00221
AATGCCCG: 0.253

Series 2 — technique: RNAcompete; form: RNA; medium: in vitro; tested at: 20 nM; setting: 7-mer, probes averaged, single round; relative to: mean of 7-mers; direction: higher = stronger binding; endpoint: 7-mer Z-score
Target: PABPC1L2, full length, GST fusion (mouse, UniProt A0ABA7IW68)
Target sequence (chain): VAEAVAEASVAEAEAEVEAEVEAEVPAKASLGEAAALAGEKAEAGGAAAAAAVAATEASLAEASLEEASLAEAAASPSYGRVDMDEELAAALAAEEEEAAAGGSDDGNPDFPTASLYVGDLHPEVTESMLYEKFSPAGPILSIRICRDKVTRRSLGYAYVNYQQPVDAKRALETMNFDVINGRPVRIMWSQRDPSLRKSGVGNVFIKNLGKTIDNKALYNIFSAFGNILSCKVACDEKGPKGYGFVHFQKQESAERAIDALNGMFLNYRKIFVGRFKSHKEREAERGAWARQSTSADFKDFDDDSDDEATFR
UGGUUUU: -0.38
GAACCGA: -0.113
GCGACGG: 0.144
CAUCUGC: -0.159

Series 3 — technique: protein-binding microarray; form: double-stranded DNA, one strand shown; medium: in vitro; tested at: 940 nM top; setting: 60-bp whole probe; together with: salmon DNA 0.4 mg/ml; relative to: random background probes; direction: higher = stronger binding; endpoint: fitted relative affinity
Target: Interferon regulatory factor 5, full length, phosphomimetic (IRF5, Homo sapiens, UniProt Q13568-2, residues 1-514, S451D/S453D/S456D/S462D)
GCCTAGCACTAAATTCTGAAAATGGAAACGTGCTAGGTCTTGATTCGCTTGACGCTGCTG: -0.079 z-score
GCCTAGCACTCAGTCTTCAGGTTCTCACTGTGCTAGGTCTTGATTCGCTTGACGCTGCTG: 0.442 z-score
GCCTAGCACTTAGATATCAGTTTCGCTTAGTGCTAGGTCTTGATTCGCTTGACGCTGCTG: 5.21 z-score
GCCTAGCACTCATGGTCCTCTCTCTAACTGTGCTAGGTCTTGATTCGCTTGACGCTGCTG: 0.174 z-score

Mixed results
PhoQ, residues 284 288 289 292 302 303 SVHLDV — fold induction (PhoP, residues 12 14 15 18 19 LHHVQ (Escherichia coli, UniProt P23836); Sort-seq, refers to: YFP reporter; E. coli; PhoQ-PhoP variant library, together with: 10 µM Mg2+; relative to: high Mg2+ state, higher = stronger signaling): 0.73

Some of these lines once more (series 1):
CTATTGTC: 0.00304
